Assay results pooled from the literature.
Protocols differ between the studies behind these lines. Values joined by “and” are separate records of one study, mostly repeats; a detail may differ. ± marks the error that the study gave.
14-3-3 protein beta/alpha: 14-3-3 protein beta/alpha (Homo sapiens, UniProt P31946)
UniProt P31946, sequence (whole entry, looked up): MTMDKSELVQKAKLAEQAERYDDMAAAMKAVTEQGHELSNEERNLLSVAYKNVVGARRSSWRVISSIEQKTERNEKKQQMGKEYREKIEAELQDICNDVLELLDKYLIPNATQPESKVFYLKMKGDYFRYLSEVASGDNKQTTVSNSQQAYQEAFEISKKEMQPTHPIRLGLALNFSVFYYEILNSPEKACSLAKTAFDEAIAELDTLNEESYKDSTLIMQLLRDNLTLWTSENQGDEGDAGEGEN
TNIK: TRAF2 and NCK-interacting protein kinase (TNIK, Homo sapiens, UniProt Q9UKE5)
UniProt Q9UKE5, sequence (whole entry, looked up): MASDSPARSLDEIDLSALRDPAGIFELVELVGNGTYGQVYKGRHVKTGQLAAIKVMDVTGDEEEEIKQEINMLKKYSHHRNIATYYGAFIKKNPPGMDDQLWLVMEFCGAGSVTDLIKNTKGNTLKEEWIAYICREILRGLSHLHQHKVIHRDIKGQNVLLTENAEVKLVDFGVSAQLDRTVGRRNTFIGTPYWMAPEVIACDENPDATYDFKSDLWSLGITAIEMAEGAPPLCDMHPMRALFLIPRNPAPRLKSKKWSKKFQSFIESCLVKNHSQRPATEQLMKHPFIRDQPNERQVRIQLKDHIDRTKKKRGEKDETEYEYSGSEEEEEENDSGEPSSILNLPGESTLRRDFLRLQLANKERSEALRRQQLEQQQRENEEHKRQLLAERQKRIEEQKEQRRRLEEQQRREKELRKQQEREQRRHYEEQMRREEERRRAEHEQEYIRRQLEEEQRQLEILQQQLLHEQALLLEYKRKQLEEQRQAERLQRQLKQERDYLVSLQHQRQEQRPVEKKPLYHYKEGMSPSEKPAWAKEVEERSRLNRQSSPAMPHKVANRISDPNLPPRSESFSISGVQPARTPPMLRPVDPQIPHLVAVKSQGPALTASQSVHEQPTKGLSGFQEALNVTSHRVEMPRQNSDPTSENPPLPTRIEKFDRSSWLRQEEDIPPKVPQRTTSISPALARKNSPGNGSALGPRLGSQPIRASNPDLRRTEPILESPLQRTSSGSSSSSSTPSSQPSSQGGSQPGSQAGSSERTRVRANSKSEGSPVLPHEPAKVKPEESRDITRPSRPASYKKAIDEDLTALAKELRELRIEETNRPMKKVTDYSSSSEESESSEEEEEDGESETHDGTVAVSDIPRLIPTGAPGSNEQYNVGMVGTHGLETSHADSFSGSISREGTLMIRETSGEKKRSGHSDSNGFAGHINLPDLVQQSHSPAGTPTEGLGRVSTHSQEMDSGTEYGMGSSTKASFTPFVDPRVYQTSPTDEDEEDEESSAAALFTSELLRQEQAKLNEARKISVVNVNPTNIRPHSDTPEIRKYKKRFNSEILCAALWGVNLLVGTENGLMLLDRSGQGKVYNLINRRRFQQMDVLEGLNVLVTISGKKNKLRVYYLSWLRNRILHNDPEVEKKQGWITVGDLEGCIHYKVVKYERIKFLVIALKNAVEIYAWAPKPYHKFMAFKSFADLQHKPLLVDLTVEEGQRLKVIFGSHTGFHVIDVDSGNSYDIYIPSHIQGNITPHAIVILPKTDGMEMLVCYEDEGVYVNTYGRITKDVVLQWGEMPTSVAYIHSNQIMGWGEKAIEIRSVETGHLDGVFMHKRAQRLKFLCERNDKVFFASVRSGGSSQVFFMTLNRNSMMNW
HSP90AA1: Heat shock protein HSP 90-alpha (HSP90AA1, Homo sapiens, UniProt P07900)
UniProt Q9UNU6, sequence (whole entry, unmodified, looked up): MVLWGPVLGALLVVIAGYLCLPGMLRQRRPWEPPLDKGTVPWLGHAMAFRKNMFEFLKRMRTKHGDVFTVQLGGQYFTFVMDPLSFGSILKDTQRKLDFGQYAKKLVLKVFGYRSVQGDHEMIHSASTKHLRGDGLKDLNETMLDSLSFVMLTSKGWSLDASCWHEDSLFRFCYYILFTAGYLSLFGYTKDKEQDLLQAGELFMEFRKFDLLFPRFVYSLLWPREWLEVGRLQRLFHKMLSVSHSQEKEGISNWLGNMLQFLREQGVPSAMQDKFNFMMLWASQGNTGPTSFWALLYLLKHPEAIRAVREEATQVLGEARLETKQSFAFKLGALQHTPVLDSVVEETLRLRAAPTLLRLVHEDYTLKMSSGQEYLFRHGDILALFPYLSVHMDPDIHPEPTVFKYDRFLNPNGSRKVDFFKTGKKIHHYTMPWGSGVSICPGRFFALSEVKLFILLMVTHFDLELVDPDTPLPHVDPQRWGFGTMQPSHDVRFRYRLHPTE
UniProt Q9NNX6, sequence (whole entry, looked up): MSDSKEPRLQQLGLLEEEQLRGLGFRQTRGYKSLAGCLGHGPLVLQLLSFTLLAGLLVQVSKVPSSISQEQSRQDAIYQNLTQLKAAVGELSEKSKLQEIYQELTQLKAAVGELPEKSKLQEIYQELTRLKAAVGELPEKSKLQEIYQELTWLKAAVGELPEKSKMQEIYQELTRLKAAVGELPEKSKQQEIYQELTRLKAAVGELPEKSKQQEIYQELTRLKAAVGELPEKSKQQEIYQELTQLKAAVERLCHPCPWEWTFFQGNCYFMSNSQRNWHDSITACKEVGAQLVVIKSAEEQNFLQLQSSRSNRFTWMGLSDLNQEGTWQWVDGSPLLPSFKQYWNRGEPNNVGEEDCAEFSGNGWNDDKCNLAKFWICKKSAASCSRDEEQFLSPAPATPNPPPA
UniProt Q08460, sequence (whole entry, looked up): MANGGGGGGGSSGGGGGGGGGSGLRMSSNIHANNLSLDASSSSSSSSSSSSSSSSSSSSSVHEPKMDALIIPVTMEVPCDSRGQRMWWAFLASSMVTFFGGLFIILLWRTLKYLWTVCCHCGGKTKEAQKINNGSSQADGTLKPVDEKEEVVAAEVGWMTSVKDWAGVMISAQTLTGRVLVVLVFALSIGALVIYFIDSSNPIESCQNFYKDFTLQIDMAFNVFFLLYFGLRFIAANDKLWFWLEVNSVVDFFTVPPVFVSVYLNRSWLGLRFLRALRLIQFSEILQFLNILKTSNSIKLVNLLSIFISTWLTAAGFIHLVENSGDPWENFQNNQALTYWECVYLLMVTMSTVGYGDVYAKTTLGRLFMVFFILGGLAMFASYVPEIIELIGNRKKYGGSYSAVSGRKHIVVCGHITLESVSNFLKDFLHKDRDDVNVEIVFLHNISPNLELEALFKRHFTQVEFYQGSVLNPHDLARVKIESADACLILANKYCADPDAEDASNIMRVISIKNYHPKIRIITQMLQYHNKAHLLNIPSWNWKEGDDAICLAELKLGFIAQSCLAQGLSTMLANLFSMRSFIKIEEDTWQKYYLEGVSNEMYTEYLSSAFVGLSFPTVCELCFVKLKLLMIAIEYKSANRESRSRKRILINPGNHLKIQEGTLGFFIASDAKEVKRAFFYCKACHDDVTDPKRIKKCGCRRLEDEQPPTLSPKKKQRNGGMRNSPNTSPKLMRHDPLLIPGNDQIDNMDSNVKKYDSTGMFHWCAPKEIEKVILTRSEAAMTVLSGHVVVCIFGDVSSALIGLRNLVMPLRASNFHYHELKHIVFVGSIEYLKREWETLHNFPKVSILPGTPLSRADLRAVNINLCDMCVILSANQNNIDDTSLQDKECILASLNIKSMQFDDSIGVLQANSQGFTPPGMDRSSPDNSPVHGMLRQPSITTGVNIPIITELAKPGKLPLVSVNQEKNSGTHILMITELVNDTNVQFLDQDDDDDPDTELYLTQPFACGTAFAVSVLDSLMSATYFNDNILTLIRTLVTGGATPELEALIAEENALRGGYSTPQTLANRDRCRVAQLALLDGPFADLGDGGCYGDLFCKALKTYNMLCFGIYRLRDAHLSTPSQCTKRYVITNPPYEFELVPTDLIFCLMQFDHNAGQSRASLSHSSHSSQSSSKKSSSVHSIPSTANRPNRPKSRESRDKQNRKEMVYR
UniProt Q86YV6, sequence (whole entry, looked up): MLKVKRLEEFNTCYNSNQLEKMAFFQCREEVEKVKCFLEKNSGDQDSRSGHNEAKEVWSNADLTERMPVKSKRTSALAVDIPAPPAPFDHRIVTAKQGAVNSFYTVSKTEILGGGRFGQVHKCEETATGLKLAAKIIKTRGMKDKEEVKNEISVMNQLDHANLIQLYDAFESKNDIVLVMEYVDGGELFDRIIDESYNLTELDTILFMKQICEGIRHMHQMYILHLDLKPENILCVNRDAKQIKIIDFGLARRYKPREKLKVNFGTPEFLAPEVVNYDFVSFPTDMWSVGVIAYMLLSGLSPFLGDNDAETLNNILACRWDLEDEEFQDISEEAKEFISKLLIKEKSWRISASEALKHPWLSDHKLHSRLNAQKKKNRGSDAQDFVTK
UniProt P98170, sequence (whole entry, looked up): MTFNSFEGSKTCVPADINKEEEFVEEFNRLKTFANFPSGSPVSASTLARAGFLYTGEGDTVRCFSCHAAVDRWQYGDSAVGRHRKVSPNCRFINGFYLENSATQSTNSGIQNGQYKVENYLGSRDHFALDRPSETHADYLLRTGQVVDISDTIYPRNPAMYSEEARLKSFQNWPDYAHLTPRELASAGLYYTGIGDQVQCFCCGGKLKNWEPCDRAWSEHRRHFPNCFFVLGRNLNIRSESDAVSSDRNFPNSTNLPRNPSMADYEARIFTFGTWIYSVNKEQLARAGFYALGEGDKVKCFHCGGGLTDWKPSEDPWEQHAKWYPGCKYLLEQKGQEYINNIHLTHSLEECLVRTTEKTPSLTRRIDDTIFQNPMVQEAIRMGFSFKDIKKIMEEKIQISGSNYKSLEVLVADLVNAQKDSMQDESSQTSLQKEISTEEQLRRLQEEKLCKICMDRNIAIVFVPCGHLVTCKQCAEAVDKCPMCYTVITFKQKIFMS
UniProt P15692, sequence (whole entry, looked up): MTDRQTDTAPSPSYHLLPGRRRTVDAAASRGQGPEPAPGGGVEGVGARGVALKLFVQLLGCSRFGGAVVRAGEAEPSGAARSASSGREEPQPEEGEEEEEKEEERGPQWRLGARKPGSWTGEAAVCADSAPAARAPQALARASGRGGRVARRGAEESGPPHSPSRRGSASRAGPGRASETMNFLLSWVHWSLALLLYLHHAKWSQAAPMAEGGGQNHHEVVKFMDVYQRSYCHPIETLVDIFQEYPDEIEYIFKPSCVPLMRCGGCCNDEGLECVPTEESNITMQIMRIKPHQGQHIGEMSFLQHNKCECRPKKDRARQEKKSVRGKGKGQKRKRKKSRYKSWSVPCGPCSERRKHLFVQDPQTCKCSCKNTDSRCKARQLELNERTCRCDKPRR

The Kd of CC[C@H](C)[C@@H]1NC(=O)[C@@H]2CCCN2C(=O)[C@H](Cc2c[nH]c3ccccc23)NC(=O)[C@H](CO)NC(=O)[C@H](Cc2c[nH]c3ccccc23)NC(=O)[C@H](CC(N)=O)NC(=O)[C@H](CCCCN)NC(=O)[C@H](CCSC)NC(=O)[C@@H]2CSCCC(=O)N3CN(CN(C3)C(=O)CCSC[C@H](NC(=O)[C@H](C)N)C(=O)N3CCC[C@H]3C(=O)N[C@@H](Cc3ccccc3)C(=O)NCC(=O)N2)C(=O)CCSC[C@@H](C(=O)N[C@H](C(=O)N[C@@H](CC(N)=O)C(=O)N[C@@H](CCCCN)C(=O)N(C)CC(=O)N(C)CC(=O)N(C)CC(=O)N(C)CC(=O)N(C)CC(=O)N(C)CC(=O)N[C@@H](CCCCNC(=O)c2ccc(C(=O)O)c(-c3c4ccc(=O)cc-4oc4cc(O)ccc34)c2)C(N)=O)[C@@H](C)O)NC(=O)[C@H](Cc2c[nH]c3ccccc23)NC1=O is reported as > 2 µM (Nectin-3 (NECTIN3, Homo sapiens, UniProt Q9NQS3); fluorescence polarization).
O=C(CF)N[C@H]1[C@H]([C@H](O)[C@H](O)CNC(=O)c2ccc(Oc3ccccc3)cc2)O[C@@](OCc2cccc(Cl)c2Cl)(C(=O)O)C[C@@H]1O gave a Kd of 0.32 µM (CD22 (Homo sapiens, UniProt P20273); binding, ITC).
CC[C@H](C)[C@H](NC(=O)[C@H](CC(C)C)NC(=O)[C@H](C)NC(=O)[C@H](C)NC(=O)[C@@H]1CCCN1C(=O)[C@@H](NC(=O)[C@H](C)N)C(C)C)C(=O)N[C@@H](CC(C)C)C(=O)N[C@@H](CCCNC(=N)N)C(=O)N[C@@H](CCC(=O)O)C(=O)N[C@@H](CCCCN)C(=O)N[C@@H](CCCCN)C(=O)N[C@@H](CCCCN)C(=O)N[C@@H](CCCCNC(=O)CCCCCNC(=S)Nc1ccc2c(c1)C(=O)OC21c2ccc(O)cc2Oc2cc(O)ccc21)C(N)=O — result for Kd: “no binding” (E3 ubiquitin-protein ligase XIAP, BIR1 domain (XIAP, Homo sapiens, UniProt P98170); fluorescence polarization; 30 min, pH 7.5, added: 20 nM FITC-labeled peptide).
The Kd of CC[C@@H](C)[C@@H](NC(=O)[C@@H](CCC(N)=O)NC(=O)[C@H](NC(=O)[C@H]1CCCN1C(=O)[C@H](NC(=O)[C@@H](CO)NC(=O)[C@@H](Cc1ccccc1)NC(=O)[C@H]1CCCN1C(=O)[C@@H](CCC(N)=O)NC(=O)[C@H](N)CCSC)[C@H](C)CC)C(C)C)C(=O)N[C@@H](C(=O)N[C@H](CC(C)C)C(=O)N[C@H](CCC(N)=O)C(=O)NCC(=O)N[C@H](CO)C(=O)N[C@H](CCCNC(=N)N)C(=O)N[C@H](CCCNC(=N)N)C(=O)N[C@H](CCCNC(=N)N)C(=O)N[C@H](CCC(N)=O)C(=O)NCC(=O)N[C@H](CCCNC(=N)N)C(N)=O)[C@H](C)O is reported as 16.7 µM (Kcnma1 (Mus musculus, UniProt Q08460); BK current, blocker, inside-out patch; Xenopus oocytes; pH 7.0, 22 °C, 0 mV, added: 40 µM peptide).
With C=C1[C@@H](O)C[C@H]2C(C)(C)C[C@H](Br)C[C@]2(C)[C@H]1C[C@H](O)[C@H]1CC(=O)NC1=O the Kd was 0.7 ± 0.25 µM (ribosome, Saccharomyces cerevisiae, 80S, E site; smFRET; pH 7.5, 23 °C, 5 mM MgCl2).
For CC[C@H](C)[C@H](NC(=O)CNC(=O)CNC(=O)CNC(=O)CNC(=O)CNC(=O)[C@@H](NC(=O)[C@H](CCSC)NC(=O)[C@H](CC(C)C)NC(=O)[C@H](CC(N)=O)NC(=O)[C@H](CC(C)C)NC(=O)[C@@H](NC(=O)[C@H](COP(=O)(O)O)NC(=O)[C@H](CCC(N)=O)NC(=O)[C@H](CCCNC(=N)N)NC(=O)[C@H](CCCNC(=N)N)NC(=O)[C@H](CCCNC(=N)N)NC(=O)[C@H](C)NC(=O)[C@H](CCC(N)=O)NC(C)=O)C(C)C)[C@@H](C)O)C(=O)N[C@@H](Cc1ccc(O)cc1)C(=O)N[C@@H](CO)C(=O)N[C@@H](CCCNC(=N)N)C(=O)N[C@@H](CCCNC(=N)N)C(=O)N[C@@H](CC(C)C)C(=O)N[C@@H](COP(=O)(O)O)C(=O)N[C@@H](CCC(N)=O)C(=O)N[C@@H](CCC(=O)O)C(=O)N[C@H](C(=O)NCC(=O)N[C@@H](CC(C)C)C(=O)N[C@@H](CCC(=O)O)C(N)=O)[C@@H](C)O, the Kd was 13 µM (14-3-3 protein beta/alpha; binding, ITC; pH 7.4).
The Kd of CC(C)[C@@H]1NC(=O)[C@H](Cc2ccccc2)NC(=O)CSC[C@@H](C(N)=O)NC(=O)[C@H](CCC(=O)O)NC(=O)[C@H](CO)NC(=O)[C@H](Cc2c[nH]c3ccccc23)NC(=O)[C@H](C(C)C)NC(=O)[C@H](C(C)C)NC(=O)[C@H](Cc2ccc(O)cc2)NC(=O)[C@H](CC(=O)O)NC(=O)[C@H](Cc2c[nH]c3ccccc23)NC(=O)[C@H](Cc2ccc(N)nc2)NC(=O)[C@H](Cc2c[nH]c3ccccc23)NC(=O)[C@H](CCC(=O)O)NC1=O is reported as 0.111 ± 0.002 µM (Interleukin-1 receptor-like 2, D1-D2 domains (IL1RL2, Homo sapiens, UniProt Q9HB29); SPR; IL-36R domains D1-D2).
The Kd of CC[C@H](C)[C@H](NC(=O)[C@H](Cc1ccccc1)NC(=O)[C@H](CCC(=O)O)NC(=O)[C@H](CC(=O)O)NC(=O)[C@H](CC(=O)O)NC(=O)[C@H](CC(=O)O)NC(=O)[C@H](CC(=O)O)NC(=O)[C@H](CC(=O)O)NC(=O)[C@H](C)NC(=O)[C@H](C)NC(=O)[C@H](CC(=O)O)NC(=O)[C@H](CCC(=O)O)NC(=O)[C@@H](N)CC(=O)O)C(=O)N[C@@H](Cc1ccc(O)cc1)C(=O)N1CCC[C@H]1C(=O)N[C@@H](CC(N)=O)C(=O)N[C@@H](CO)C(=O)N[C@@H](Cc1ccc(O)cc1)C(=O)O is reported as 6.4 µM (RNA-binding protein RRM4 (RRM4, Mycosarcoma maydis, UniProt A0A0D1DWZ5); isothermal titration calorimetry; pH 8.0, 25 °C).
For CCCC[C@@H]1NC(=O)[C@H](Cc2ccc(F)cc2)NC(=O)[C@H](CCC(N)=O)NC(=O)[C@H](Cc2ccc(O)cc2)NC(=O)[C@H](Cc2c[nH]c3ccccc23)NC(=O)[C@@H](C)NC(=O)[C@H](CCC(=O)N[C@@H](CCCCN)C(N)=O)NC(=O)[C@@H](C)NC(=O)[C@@H](C)NC(=O)[C@@H](C)NC1=O, the Kd was 1.3 µM (Lysine--tRNA ligase (KARS1, Homo sapiens, UniProt Q15046); binding).
For O=C(N[C@@H]1c2ccccc2C[C@H]1N1CCCC1)c1ccc(-c2ccnc3[nH]ccc23)nc1, the Kd was 0.055 µM (MYLK4 (Homo sapiens, UniProt Q86YV6); binding, competition with immobilised ligand).
CSCC[C@H](NC=O)C(=O)N[C@@H](CCCNC(=N)N)C(=O)N[C@H](C(=O)NCC(=O)N[C@@H](CC(N)=O)C(=O)N[C@@H](C)C(=O)N[C@@H](CC(N)=O)C(=O)NCC(=O)NCC(=O)N[C@@H](CCCCNC(=S)Nc1ccc2c(c1)C(=O)OC21c2ccc(O)cc2Oc2cc(O)ccc21)C(=O)O)[C@@H](C)O has a Kd of 6.02 ± 0.37 µM (Uncharacterized protein YejA (yejA, Escherichia coli, UniProt P33913, N75A); binding, fluorescence polarisation; YejA variant N57A).
C=C1NC(=O)[C@H](CCSC)NC(=O)[C@H](Cc2ccc(O)cc2)NC(=O)[C@H](Cc2c[nH]cn2)NC(=O)CNC(=O)[C@H](CCC(N)=O)NC(=O)[C@H](CC(N)=O)NC(=O)[C@H](Cc2c[nH]cn2)NC(=O)[C@H]([C@@H](C)O)NC(=O)[C@H](CCC(N)=O)NC(=O)[C@H](CO)NC(=O)[C@H](Cc2c[nH]c3ccccc23)NC(=O)[C@H](Cc2c[nH]c3ccccc23)NC(=O)c2ccc(-c3nc(C(=O)OC)cs3)nc2-c2csc1n2 has a Kd of 0.053 µM (TNIK; binding, SPR).
The Kd of CCCc1cc2cc(-n3cc(C)c4c3CC(C)(C)CC4=O)cc(N3CCC(O)CC3)c2c(=O)[nH]1 is reported as 0.575 µM (HSP90AB1 (Homo sapiens, UniProt P08238); fluorescence polarization; 24 h, 4 °C, added: FITC-geldanamycin tracer).
CC(C)C[C@H](NC(=O)[C@H](CCP(=O)(O)O)NC(=O)[C@@H](NC(=O)[C@@H](NC(=O)[C@H](CCCNC(=N)N)NC(=O)[C@H](CC(C)C)NC(=O)[C@H](CO)NC(=S)Nc1ccc2c(c1)C(=O)OC21c2ccc(O)cc2Oc2cc(O)ccc21)[C@@H](C)O)C(C)C)C(=O)NCC(=O)N[C@@H](C)C(=O)NCC(=O)N[C@@H](C)C(=O)N[C@@H](Cc1c[nH]c2ccccc12)C(=O)N[C@@H](CC(C)C)C(=O)N[C@H](C(=O)N1CCC[C@H]1C(=O)N[C@@H](CCCNC(=N)N)C(=O)O)C(C)C gave a Kd of 20.9 µM (14-3-3 protein beta/alpha; binding, fluorescence anisotropy; pH 7.5, FITC-labelled phosphopeptide titration).
For CCCc1cc2cc(-n3nc(CC)c4c3CC(C)(C)CC4=O)cc(N3CCC(O)CC3)c2c(=O)[nH]1, the Kd was 73.3 µM (HSP90AA1; fluorescence polarization; 24 h, 4 °C, added: FITC-geldanamycin tracer).
For C=C1NC(=O)[C@H](CCSC)NC(=O)[C@H](Cc2ccc(O)cc2)NC(=O)[C@H](CC(N)=O)NC(=O)CNC(=O)CNC(=O)[C@H](CC(N)=O)NC(=O)[C@H](Cc2c[nH]cn2)NC(=O)[C@H](CCC(=O)O)NC(=O)[C@H](Cc2ccc(O)cc2)NC(=O)[C@H](CO)NC(=O)[C@H](Cc2c[nH]c3ccccc23)NC(=O)[C@H](Cc2c[nH]c3ccccc23)NC(=O)c2ccc(-c3nc(C(=O)OC)cs3)nc2-c2csc1n2, the Kd was 0.058 µM (TNIK; binding, SPR).
The Kd of CC[C@H](C)[C@H](NC(=O)[C@H](CC(=O)O)NC(=O)[C@H](CCCNC(=N)N)NC(=O)[C@H](C)NC(=O)c1ccc2c(c1)C(=O)OC21c2ccc(N(C)C)cc2Oc2cc(N(C)C)ccc21)C(=O)N[C@@H](Cc1c[nH]cn1)C(=O)N[C@@H](Cc1c[nH]cn1)C(=O)N[C@H](C(=O)N[C@@H](CC(=O)O)C(=O)N[C@@H](Cc1ccc(O)cc1)C(=O)N[C@@H](Cc1ccc(OP(=O)(O)O)cc1)C(=O)N[C@@H](CCCCN)C(=O)N[C@@H](CCCCN)C(=O)N[C@H](C(=O)N[C@H](C(=O)N[C@@H](CC(N)=O)C(=O)NCC(=O)N[C@@H](CCCNC(=N)N)C(=O)N[C@@H](CC(=O)O)C(=O)O)[C@@H](C)O)[C@@H](C)O)[C@@H](C)CC is reported as 1.08 µM (GRB2-related adapter protein 2, SH2 domain (GRAP2, Homo sapiens, UniProt O75791); binding).
N=C(N)NCc1cn([C@@H]2[C@@H](OCCn3cc(COCCOCCOCCn4cc(-c5cc(OCCOCCO)c(C#Cc6cc(OCCOCCO)c(C#Cc7cc(OCCOCCO)c(-c8cn(CCOCCOCCOCc9cn(CCO[C@H]%10O[C@H](CO)[C@@H](O)[C@H](O)[C@@H]%10n%10cc(CNC(=N)N)nn%10)nn9)nn8)cc7OCCOCCO)cc6OCCOCCO)cc5OCCOCCO)nn4)nn3)O[C@H](CO)[C@@H](O)[C@@H]2O)nn1 gave a Kd of 20.9 µM and 38.8 µM (CD209 antigen (CD209, Homo sapiens, UniProt Q9NNX6); binding).
CCCc1cc2cc(-n3nc(C(F)F)c4c3CC(C)(C)CC4=O)cc(N3CCC(O)CC3)c2c(=O)[nH]1 has a Kd of > 100 µM (HSP90AA1; fluorescence polarization; 24 h, 4 °C, added: FITC-geldanamycin tracer).
The Kd of C[C@@]12C(=O)CC[C@H]1[C@@H]1CC=C3C[C@@H](O)CC[C@]3(C)[C@H]1C=C2c1cccnc1 is reported as ~32 µM and 32.5 µM (7-alpha-hydroxycholest-4-en-3-one 12-alpha-hydroxylase (Homo sapiens, UniProt Q9UNU6, W281F); binding, spectral titration).
For CC[C@H](C)[C@@H]1NC(=O)[C@H](CC(=O)O)NC(=O)[C@@H](NC(=O)[C@H](CCC(=O)O)NC(=O)[C@H](CC(N)=O)NC(=O)CNC(=O)CN)CSSC[C@@H](C(=O)N[C@@H](Cc2ccc(F)cc2)C(=O)N[C@@H](CCC(=O)O)C(=O)NCC(=O)N[C@@H](C)C(=O)O)NC(=O)[C@H](CCC(=O)O)NC(=O)[C@H](Cc2c[nH]c3ccccc23)NC(=O)[C@H](CCC(=O)O)NC(=O)[C@H](Cc2c[nH]c3ccccc23)NC(=O)[C@H](CCSC)NC(=O)[C@H](CCCNC(=N)N)NC(=O)[C@H](C)NC1=O, the Kd was 152 µM (VEGFA (Homo sapiens, UniProt P15692); binding).

Excerpt of the above:
The Kd of CC(C)[C@@H]1NC(=O)[C@H](Cc2ccccc2)NC(=O)CSC[C@@H](C(N)=O)NC(=O)[C@H](CCC(=O)O)NC(=O)[C@H](CO)NC(=O)[C@H](Cc2c[nH]c3ccccc23)NC(=O)[C@H](C(C)C)NC(=O)[C@H](C(C)C)NC(=O)[C@H](Cc2ccc(O)cc2)NC(=O)[C@H](CC(=O)O)NC(=O)[C@H](Cc2c[nH]c3ccccc23)NC(=O)[C@H](Cc2ccc(N)nc2)NC(=O)[C@H](Cc2c[nH]c3ccccc23)NC(=O)[C@H](CCC(=O)O)NC1=O is reported as 0.111 ± 0.002 µM (Interleukin-1 receptor-like 2, D1-D2 domains (IL1RL2, Homo sapiens, UniProt Q9HB29); SPR; IL-36R domains D1-D2).
